Results collected from several papers.
Each line is one published result; not all experiments were run side by side. ± marks the error that the study gave.

| Compound | organism | assay | test system | conditions | MIC |
| --- | --- | --- | --- | --- | --- |
| C[C@@H](c1ccn(Cc2ccc(OC(F)(F)F)cc2)n1)[C@](O)(Cn1cnnn1)c1ccc(F)cc1F | Candidozyma auris | growth | 888 drug-resistant isolate | 24 h, 30 °C, ≥50% inhibition | 1 µg/mL |
| C=C(NC(=O)C(=C)NC(=O)c1csc(C2=NC3c4csc(n4)C4NC(=O)c5csc(n5)C(C(C)(O)C(C)O)NC(=O)C5CSC(=N5)C(=CC)NC(=O)C(C(C)O)NC(=O)c5csc(n5)C3(CC2)NC(=O)C(C)NC(=O)C(=C)NC(=O)C(C(C)C)NC2C=Cc3c(C(C)O)cc(nc3C2O)C(=O)OC4C)n1)C(N)=O (stereo not drawn) | Bacillus sp. | broth microdilution | ATCC 27859 | 18 h, 37 °C | > 5 µg/mL |
| CC[C@H](C)[C@@H]1NC(=O)CNC(=O)[C@H](CCCCN)NC(=O)[C@H](C)NC(=O)[C@H](CCC(=O)O)NC(=O)[C@H](Cc2ccccc2)NC(=O)[C@H](CO)NC(=O)[C@H](CC(C)C)NC(=O)[C@H](C(C)C)NC(=O)[C@H](CC(=O)O)NC(=O)[C@@H](NC(=O)[C@@H](NC(=O)[C@@H](N)C(C)C)[C@@H](C)O)CSSC[C@@H]2NC(=O)[C@H](CO)NC(=O)CNC(=O)CNC(=O)[C@H](CCCCN)NC(=O)[C@H](CCCCN)NC(=O)[C@H](CCCNC(=N)N)NC(=O)[C@H](CC(C)C)NC(=O)[C@H](C)NC(=O)[C@H]([C@@H](C)CC)NC(=O)[C@H](C)NC(=O)[C@H](Cc3c[nH]cn3)NC(=O)[C@H](CC(C)C)NC(=O)[C@H](C)NC(=O)[C@H](CSSC[C@@H](C(=O)N[C@H](C(=O)N[C@@H](C)C(=O)N[C@@H](CCCNC(=N)N)C(=O)N[C@@H](CC(N)=O)C(=O)O)C(C)C)NC(=O)[C@H](C(C)C)NC(=O)CNC(=O)[C@H](CC(N)=O)NC(=O)[C@H](CCC(N)=O)NC2=O)NC(=O)[C@H](C)NC(=O)[C@H](CO)NC(=O)[C@H](Cc2c[nH]cn2)NC(=O)[C@H](CC(N)=O)NC(=O)[C@H](C(C)C)NC(=O)[C@H](C)NC1=O | Salmonella typhimurium | broth microdilution | KCTC 1926 | 16 h, 37 °C | > 100 µM |
| CC(C)C[C@H](NC(=O)[C@H](CCCCN)NC(=O)[C@H](C)NC(=O)[C@H](CC(C)C)NC(=O)[C@H](CCCCN)NC(=O)[C@H](CCCCN)NC(=O)[C@H](C)NC(=O)[C@H](CC(C)C)NC(=O)[C@H](CCCCN)NC(=O)[C@H](C)NC(=O)[C@H](CC(C)C)NC(=O)[C@H](CCCCN)NC(=O)[C@H](Cc1c[nH]cn1)NC(=O)CNC(=O)CN)C(=O)N[C@@H](C)C(=O)N[C@@H](CCCCN)C(N)=O | Enterobacter aerogenes | – | ATCC 13048 | 18 to 20 h | > 32 µM |
| [O-][N+]1=C(c2ccccc2)C2=NCCN2c2ccccc21 | Cutibacterium acnes | microbial growth | – | – | 16 µg/mL |
| CC[C@H](C)[C@H](NC(=O)[C@H](CO)NC(=O)[C@H](CO)NC(=O)[C@H](Cc1ccccc1)NC(=O)CN)C(=O)N[C@@H](Cc1ccccc1)C(=O)N[C@@H](CCCNC(=N)N)C(=O)NCC(=O)N[C@H](C(=O)N[C@@H](C)C(=O)N[C@@H](CCCCN)C(N)=O)C(C)C | Escherichia coli | – | ATCC 8739 | added: 6 µM NH4Cl | > 128 µM |
| C[C@@H](c1ccn(Cc2ccc(I)cc2)n1)[C@](O)(Cn1cnnn1)c1ccc(F)cc1F | Candidozyma auris | microbial growth | D12 | 24 h, drug-resistant strain, clinical isolate | 0.125 µg/mL |
| CN[C@@H]1[C@H](O)[C@H](NC)[C@H]2O[C@]3(O)[C@H](O[C@@H]2[C@H]1O)O[C@H](C)C[C@@]3(O)CNCc1ccccc1 | Streptococcus pneumoniae | – | R6 drug sensitive | – | 6 µg/mL |
| COc1ccccc1NC(=O)OC1C(C)C(OC)C=COC2(C)Oc3c(C)c(O)c4c(c3C2=O)C2=NC3(CCN(CC(C)C)CC3)NC2=C(NC(=O)C(C)=CC=CC(C)C(O)C(C)C(O)C1C)C4=O (stereo not drawn) | Mycobacteroides abscessus | – | ATCC 19977 arr knockout | – | 0.015 µM |
| CN(Cc1cc(C2CC2)on1)C(=O)c1cccc(-c2ccc3c(c2)CCO3)c1 | Cryptococcus neoformans | broth microdilution | acl1∆ mutant, RPMI-MOPS | – | 4 µg/mL |
| CC[C@H](C)[C@H](NC(=O)[C@H](C)NC(=O)[C@@H](NC(=O)[C@H](CC(=O)O)NC(=O)[C@H](CCCCN)NC(=O)[C@H](CO)NC(=O)[C@@H](NC(=O)[C@H](CC(N)=O)NC(=O)[C@H](C)NC(=O)[C@@H](NC(=O)[C@H](CCC(=O)O)NC(=O)[C@H](CCCCN)NC(=O)[C@@H](NC(=O)[C@@H](NC(=O)[C@H](Cc1c[nH]cn1)NC(=O)[C@H](CCCCN)NC(=O)[C@@H](NC(=O)[C@H](CCCCN)NC(=O)[C@H](CCCCN)NC(=O)[C@@H](NC(=O)[C@H](CC(C)C)NC(=O)[C@H](CCCCN)NC(=O)[C@H](CC(N)=O)NC(=O)[C@H](Cc1ccccc1)NC(=O)[C@H](CCCNC(=N)N)NC(=O)[C@H](CCCCN)NC(=O)[C@H](CCCNC(=N)N)NC(=O)[C@H](Cc1ccccc1)NC(=O)CN)C(C)C)C(C)C)[C@@H](C)O)[C@@H](C)CC)[C@@H](C)O)C(C)C)C(C)C)C(=O)N[C@H](C(=O)N[C@@H](C)C(=O)NCC(=O)N[C@@H](CO)C(=O)NCC(=O)N[C@H](C(=O)N[C@@H](C)C(=O)N[C@H](C(=O)NCC(=O)N[C@@H](C)C(=O)N[C@@H](C)C(=O)N[C@@H](CCSC)C(N)=O)C(C)C)C(C)C)C(C)C | S. maltophilia, M. morganii, S. fonticola | – | clinical isolates | – | ≥ 64 µg/mL |
| CN[C@@H]1[C@H](O)[C@H](NC)[C@H]2O[C@]3(O)[C@H](O[C@@H]2[C@H]1O)O[C@H](C)C[C@@]3(O)CNCc1ccc(OC(F)(F)F)cc1 | Streptococcus pneumoniae | – | BAA-1407 mefE ermB resistant | – | 6 µg/mL |
| [O-][N+]1=C(c2ccc(Cl)cc2)C2=NCCCN2c2ccccc21 | Prevotella intermedia/nigrescens | – | ATCC 25611 | – | 1 µg/mL |
| CC(C)c1ccc(Cn2ccc([C@H](C)[C@](O)(Cn3cnnn3)c3ccc(F)cc3F)n2)cc1 | Candidozyma auris | growth | 791 drug-resistant isolate | 24 h, 30 °C, ≥50% inhibition | 4 µg/mL |
| CC(C)Oc1ccc(B(O)O)c(F)n1 | Citrobacter freundii | bacterial growth | AmpC-overproducing clinical isolate | cefotaxime alone | 8 µg/mL |
| CC[C@H](C)[C@H](NC(=O)[C@H](Cc1ccccc1)NC(=O)[C@H](CCC(N)=O)NC(=O)[C@H](CCSC)NC(=O)[C@@H](NC(=O)[C@H](CCC(N)=O)NC(=O)[C@H](CCCCN)NC(=O)[C@H](Cc1ccc(O)cc1)NC(=O)[C@H](Cc1ccccc1)NC(=O)[C@H](CCCCN)NC(=O)[C@H](CCCCN)NC(=O)[C@@H](NC(=O)[C@H](Cc1ccccc1)NC(=O)[C@@H]1CCCN1C(=O)[C@H](Cc1c[nH]c2ccccc12)NC(=O)CNC(=O)[C@H](Cc1ccccc1)NC(=O)[C@H](CCCCN)NC(=O)[C@H](C)NC(=O)[C@@H](NC(=O)[C@H](CC(C)C)NC(=O)[C@H](CCCCN)NC(=O)[C@H](C)NC(=O)[C@H](CCCNC(=N)N)NC(=O)[C@H](C)NC(=O)CNC(=O)[C@@H](N)CCSC)C(C)C)[C@@H](C)CC)[C@@H](C)CC)C(=O)NCC(=O)N[C@@H](CCC(N)=O)C(=O)NCC(=O)N[C@@H](Cc1c[nH]c2ccccc12)C(=O)N[C@H](C(=O)N[C@H](C(=O)N[C@@H](CC(=O)O)C(=O)N[C@@H](CCC(N)=O)C(=O)N[C@H](C(=O)N[C@@H](CCC(=O)O)C(=O)N[C@@H](CCCCN)C(=O)N[C@@H](Cc1c[nH]c2ccccc12)C(=O)N[C@@H](CC(C)C)C(=O)N[C@@H](CCCCN)C(=O)N[C@@H](CCCNC(=N)N)C(=O)N[C@@H](Cc1c[nH]cn1)C(=O)O)[C@@H](C)CC)[C@@H](C)CC)[C@@H](C)O | Bacillus subtilis subsp. subtilis | – | ATCC 23857 | 10 h | 6.1 ± 0.2 µM |
| CC[C@H](C)[C@H](NC(=O)[C@H](CCCCN)NC(=O)[C@H](CC(N)=O)NC(=O)[C@H](CC(C)C)NC(=O)[C@H](Cc1ccccc1)NC(=O)[C@H](CCCCN)NC(=O)[C@H](CCCCNC(=N)N)NC(=O)[C@H](CC(C)C)NC(=O)[C@H](CC(C)C)NC(=O)[C@H](CCCCN)NC(=O)[C@H](CCCCNC(=N)N)NC(=O)[C@H](CC(C)C)NC(=O)CNC(C)=O)C(=O)N[C@@H](CCCCN)C(=O)N[C@@H](CCCCNC(=N)N)C(N)=O | Citrobacter freundii | bacterial growth, broth microdilution | multidrug-resistant | – | 3.12 µM |
| [O-][N+]1=C(c2ccsc2)C2=NCCCN2c2ccccc21 | Clostridioides difficile | microbial growth | ATCC43255 | – | 4 µg/mL |
| O=C1CC(c2ccc(O)cc2)Oc2cc(O)cc([O][Ga+][O]c3cc(O)cc4c3C(=O)CC(c3ccc(O)cc3)O4)c21 (stereo not drawn) | Pseudomonas aeruginosa | – | PAO1 | – | ~0.5 µg/mL |
| CC(C)C[C@@H]1NC(=O)[C@H](C)NC(=O)[C@H](NC(=O)[C@H](CO)NC(=O)[C@@H](CCCCN)NC(=O)[C@@H](C)NC(=O)[C@@H](N)Cc2ccccc2)[C@H](C(N)=O)OC(=O)[C@H](CC(C)C)NC1=O | Bacillus subtilis Staphylococcus epidermidis | – | ATCC 14990 | tested as TFA salt | 16 µg/mL |
| CC[C@H](C)[C@@H]1NC(=O)[C@H](CC(C)C)NC(=O)[C@@H](NC(=O)[C@H](CO)NC(=O)[C@H](CCCNC(=N)N)NC(=O)[C@@H](N)CO)CSSC[C@@H](C(=O)N[C@@H](CCC(N)=O)C(=O)N[C@@H](CCCNC(=N)N)C(=O)N[C@@H](CC(C)C)C(=O)N[C@@H](Cc2ccccc2)C(N)=O)NC(=O)[C@H](C(C)C)NC1=O | Candidozyma auris | broth microdilution | DSM 21092 | – | 27 µg/mL |
| O=[N+]([O-])c1ccc(C2=[N+]([O-])c3ccccc3N3CCCN=C23)cc1 | Prevotella intermedia/nigrescens | – | ATCC 25611 | – | ≤ 0.06 µg/mL |
| COc1cc(O)c2c(=O)c3c(O)c(-c4c(C)cc5c(c4O)C(=O)C4=C(O)C[C@H](OC)[C@@H](O)[C@]4(C)O5)c(C)cc3oc2c1OC | Colletotrichum acutatum | microbial growth | BCC | – | > 82.4 µM |
| CC[C@H](C)[C@H](NC(=O)[C@H](CCCN)NC(=O)[C@H](CC(N)=O)NC(=O)[C@H](Cc1c[nH]c2ccccc12)NC(=O)[C@H](Cc1ccccc1)NC(=O)[C@H](CCCN)NC(=O)[C@H](CCCNC(=N)N)NC(=O)[C@H](CC(C)C)NC(=O)[C@H](Cc1c[nH]c2ccccc12)NC(=O)[C@H](CCCN)NC(=O)[C@H](CCCNC(=N)N)NC(=O)[C@H](CC(C)C)NC(=O)CNC(C)=O)C(=O)N[C@@H](CCCN)C(=O)N[C@@H](CCCNC(=N)N)C(N)=O | Citrobacter freundii | bacterial growth, broth microdilution | multidrug-resistant | – | 3.12 µM |
